Experimental data collected from several papers.
Each numbered part is a random draw from the data of one study; scales do not carry over between parts. Substitutions count along the parent as printed.

Block 1
Target: RNA binding protein fox-1 homolog 2, RRM domain, GST-SBP tag (RBFOX2, Homo sapiens, UniProt O43251-10, residues 100-194)
Method: RNA Bind-n-Seq
Form: RNA
Sample: in vitro
Concentration: 365 nM
Notes: natural RNA segment, single round, ends assumed
Reference: no-protein control
Reading: higher = stronger binding
Endpoint: RBNS enrichment (R)
Target sequence (chain): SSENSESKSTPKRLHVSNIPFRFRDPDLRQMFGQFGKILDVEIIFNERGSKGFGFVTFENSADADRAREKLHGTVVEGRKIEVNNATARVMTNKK
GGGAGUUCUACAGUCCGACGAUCUUUAAAACUUGAGCCUGGACCUUGGGGUCCUGUAGUGUGUGGAUUCCAAGGCCUUGCCCUCAGAGCAGGGGCCUGGGCACUCUCACUCACGUGGCCUGUCUCCAGAUCCCUGGAAUUCUCGGGUGCCAA: 0.292
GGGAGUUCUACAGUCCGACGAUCCAGGCCUGGCCCCUCUCUGGGAAGGUUGAGAGCUGAGACGGGCAGCCCUGUCCCUUCCUCCAGAUCCGUCUGGUUUUUUACACCGUUUGUUAAUAAAGCCUGAAACCGCUUGGAAUUCUCGGGUGCCAA: 0.621
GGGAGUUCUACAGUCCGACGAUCUCAACCAUUAGUGCUACCACCUUCUCACAUUACAAUACAAUUACUGGAAGCAAGUACUGCAUUUCCUAUGCAACAAAAAAGGAAAAAUAAAAAAUUGCUAAUGCUAUGGAUGGAAUUCUCGGGUGCCAA: 0.805
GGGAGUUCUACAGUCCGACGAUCUGACCAAAAACAGUGCCAGUUAAAAACCACCGGGGAAACGUUUGCAGAUACGCUAGGUCUGCAGUUUGAUAUUUUGUAAAAUCCUCAAAAGCAAGGGAAGUGGCUACUUUUGGAAUUCUCGGGUGCCAA: 1.54
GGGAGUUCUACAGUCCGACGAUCAGCUGCUUGAAGCUCUGUGUAAGAGCACUGCACUGACGGUUUGGAGACCUGAGCCUGGGUCCUGACUUUUCCAUUGACUAAGCUCUGUGGCCUUGGGCAAGUCACUCCCCUGGAAUUCUCGGGUGCCAA: 0.448
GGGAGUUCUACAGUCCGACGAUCUCCUAGUCCCCGUGAGCCCUGCAGAGCCCAGUGGAGUACCCUCCCAAUAAAGGCUGUGGCGAGGCUGGGCCCAUGUCUGUAUGUGUGGUGGGUCCCACAAGGGUGACAGGUGGAAUUCUCGGGUGCCAA: 0.811
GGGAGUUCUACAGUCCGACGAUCGGGCUGGGCAUAUGUCGGCCUCUUGUGCCAAGGCCAGGCAAGCAGCUCCAGGUCCUGACCAGUUUGCACACACACUCUGGAGCUGUAUCUGGCGCUUUUUCUAUCGUCUCUGGAAUUCUCGGGUGCCAA: 1.29
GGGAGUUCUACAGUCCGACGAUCACCAGCUCCAGAGCCGCUCUUUUCCUAAGCCUCCUGUGCCGCCUUCAGUUUGUAGGAGGCAGCCUGUGUGAGUGACAGACAGGAAACAGAAGAGUAGAACAUACUGGCAGUGGAAUUCUCGGGUGCCAA: 0.542
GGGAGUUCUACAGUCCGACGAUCCCCCCAGAUUGGCCCAGUGGCAUGCCAUUAGGUGAUUUUGCAUAGGGGCCAUAUCAUUCAUGGCCAAAAAAAACCAAAAAGCAAAAAACAAAAACAAGUCCCAUGUCCUAUGGAAUUCUCGGGUGCCAA: 0.296
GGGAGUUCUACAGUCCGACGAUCCCUCUCUGCUGCCGGUGAUGGGAGGCCUUUCUAGACCUGGCUCUUUCUCUCCCGUCUCAGUGGCUUCUCUGAGGUGCUGUACACGCGCGUUAACCUGUUCCCUUCUCUAUUGGAAUUCUCGGGUGCCAA: 0.243
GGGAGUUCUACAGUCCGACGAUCCUUCAGCCUUUCCAGACCACACACGAGACAUUAACCAUCCCAUGGAGAAGUUUACAUGGUGACUGUUCACCUGCAGUACUGUGGACUUUGAACAUUUUGUCCCCUUUCCAUGGAAUUCUCGGGUGCCAA: 0.456
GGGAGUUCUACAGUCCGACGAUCGAGGGAGUAUGAAGUUUCCAUUGAGCCUCAAGUCUACAAGUCUGCAGGACCCAGGACCUCUGGUUCUCUCCUUGUUCUGGGCAGUGAGGAGCAUAGGACCUGGUCUCUGGUGGAAUUCUCGGGUGCCAA: 0.444

Block 2
Target: RING finger protein unkempt homolog, zinc fingers 1-6, GST-SBP tag (UNK, Homo sapiens, UniProt Q9C0B0, residues 30-357)
Sequence of UniProt Q9C0B0 (30-357, looked up): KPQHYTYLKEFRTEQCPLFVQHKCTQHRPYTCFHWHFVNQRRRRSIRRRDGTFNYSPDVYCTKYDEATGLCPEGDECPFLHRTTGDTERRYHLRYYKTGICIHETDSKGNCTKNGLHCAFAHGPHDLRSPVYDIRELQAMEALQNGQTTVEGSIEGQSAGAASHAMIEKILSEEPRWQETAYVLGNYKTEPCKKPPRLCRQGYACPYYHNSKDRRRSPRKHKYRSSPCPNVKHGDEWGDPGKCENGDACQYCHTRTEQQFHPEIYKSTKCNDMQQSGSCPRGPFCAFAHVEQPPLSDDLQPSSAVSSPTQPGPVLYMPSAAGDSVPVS
Method: RNA Bind-n-Seq
Form: RNA
Sample: in vitro
Concentration: not given
Notes: RNA with constant flanks, ends assumed
Reference: input RNA pool
Reading: higher = stronger binding
Endpoint: bound/input enrichment
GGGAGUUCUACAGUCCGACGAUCCCUGCUCCCAAAUCAUGGGCCAGUAACAAGCAAGGUGGGCAAGGAGAUGGAAUCCAAGUGAACCGUCAGUUUCAGCAAGAAUUUCCCAGCCUGCAGGCAGCUGGGGAUCAGGAAAAAAAACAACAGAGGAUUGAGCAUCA: 0.156 ratio
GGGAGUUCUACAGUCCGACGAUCCCUGGACUGACUGACCAGAAGACUGUCCCAACACCAACAGUACCUUCAGGUUCCUUCUCACACCGAGAGAAGCCCAGUAUUUUCUAUCAACAGGAGUGGCCAGAUAGUUAUGCAACUGAACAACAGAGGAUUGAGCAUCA: 0.446 ratio
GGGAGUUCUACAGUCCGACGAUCGGCUCUACAGCGAUUAAGAAGAAACAACAAGAUGUGCUUGGUUUCCUAGAAGCCAACAAAACCGGAUUUGAAGAAAAAGAUAUUGCAGCCAAUGAAGAGAAUCGGAAGUGGAUGAGAGAACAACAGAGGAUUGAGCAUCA: 0.324 ratio
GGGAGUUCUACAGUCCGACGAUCAGUAGUACCAGUUUGCCACCUGUCGCUGAUGAAAGCCCAGUCACUGUAAAACCAGACCGUCAACUUGAAGACAUGGGAUACUGUGUGUUCAACAAGUACACAGUCCCUCUCCCAUCACCACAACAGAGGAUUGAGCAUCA: 0.305 ratio
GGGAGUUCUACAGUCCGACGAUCCUGCUAGUGCAUGGGGCUUUAGCCUUUCCUCUAGGGUUAGAUUCCUACCAUGGCUGUGUUACCGCGGCUGCCCGCUAUGGCCGGGGCCGGGUGGUUGUGACUGGCCAUAAGGUAUUAUUCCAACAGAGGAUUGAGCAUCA: 0.28 ratio
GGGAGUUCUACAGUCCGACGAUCAUUUGCAGAAACAGCGAGAACUUCAAAAGGCCAAUCAGUAAGUUUGAUUUGAAAAAUGAAUUCCGAGAUUUUUGGACAUGGAAUGAACAAAAUGGGGUCAUAUUGGUACCUCCCUCUCUACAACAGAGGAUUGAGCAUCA: 0.26 ratio
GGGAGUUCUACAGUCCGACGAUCCCUCCAGAAUUUGGGUUUCCUGAGAAGACAACAGUGAAACAGCGUUACCGGCUGCUUGGCAACCGCCUCAACGUGCAUGUGGUAGCAAAACUCCUCACAGUCCUGUGUGAAGGAUUUGGACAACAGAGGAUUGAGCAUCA: 0.264 ratio
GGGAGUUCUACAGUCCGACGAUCAGGUCGCGGGCGCCACAGGUGGAAGAAGAAAGGUGCCACUUUGGCAUGAAGAUAGACUCACUCCGACGUCAAUCUUUUAAGCUGAGUGCAUUGUGAUUUCCAAUAAUUGAGGCAGUGGUUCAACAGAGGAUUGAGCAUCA: 0.164 ratio
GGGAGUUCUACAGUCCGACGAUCCCCAGGCGGUCUUCCUUCAGAUUGCAGACUGAAGCCCAGGAAGAUGAUUGGUAUGACUGUCACCGGGAAAUACGUCUGAGUUUUUCUGAUACCUAUCAGGAUUAUGAGGAGUACUGGAGACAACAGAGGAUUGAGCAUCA: 0.105 ratio
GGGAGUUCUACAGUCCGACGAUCCUCUUUUUUUUCCACGGGGCUGUUUUUUUAAUUUGGCUGCAAUUGCAUGAAAUCCCAAUGGUGCCGACCAGUGGCGAUGGAUCUAGGAGUUUACCAACUGAGACAUUUUUCCAUUUCUUUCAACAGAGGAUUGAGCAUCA: 0.591 ratio
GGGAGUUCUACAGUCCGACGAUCUACUUAAAUGAAAUAAAACCUCCCAUCAUACACUAUGACCUCAAACCAGGUAAUAUUCUUUCCGUAAAUGGUACAGCGUGUGGAGAGAUAAAAAUUACAGAUUUUGGUCUUUCGAAGAUCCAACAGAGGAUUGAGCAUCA: 0.242 ratio

Block 3
Target: CCNA1, cyclin fold, Cln2 fusion (human)
Method: yeast growth competition, sequencing
Sample: yeast
Notes: weak parent motif
Reference: not given
Reading: higher = stronger binding
Endpoint: normalised enrichment score
Starting sequence: RB1 docking peptide (human); PKPLKKLRFDIEG
K5M: 0.0774
D10G: 1.11
P3L: 0.102
F9L: 0.263
K2M: 0.203
K6E: -0.145
K6Q: 0.0667
G13C: 0.351
L4K: -0.228
K5A L7A: 0.0596
L4F: 0.458
P1F: 0.658
P1H: 0.314
I11P: 0.249
L7E: 0.102
K6L: 0.232
E12A: -0.0559
I11N: 0.496
F9E: 0.00196
P1Q: 0.107
R8A: 0.42
P1D: 0.549
K2C: 0.357
K5H: 0.356
K2N: -0.0496

Block 4
Target: Prothrombin, mature alpha-thrombin (F2, Homo sapiens, UniProt P00734)
Method: aptamer microarray, sandwich
Form: DNA with 2'F-ANA
Sample: in vitro
Concentration: 200 nM
Notes: whole 15-mer aptamer, many near background
Added: Cy3 exosite-II aptamer, 400 nM
Reading: higher = stronger binding
Endpoint: mean fluorescence intensity
Sequence: GGTTGGTGTGGTTGG
2'F-ANA at 1 2 3 4 5 6 9 10 12: 53.9 a.u.
2'F-ANA at 1 3 5 6 7 10 12 13: 50.9 a.u.
2'F-ANA at 1 2 3 5 6 7 9 10 15: 62.2 a.u.
2'F-ANA at 2 4 5 10 15: 66.6 a.u.
2'F-ANA at 3 4 5 11 12 14 15: 54.7 a.u.
2'F-ANA at 2 5 9 10 11 14: 47.3 a.u.
2'F-ANA at 4 6 10 11 12 13 15: 75.3 a.u.
2'F-ANA at 2 4 5 8 9 13: 54.6 a.u.
2'F-ANA at 1 3 5 6 8 12 13: 98.4 a.u.
2'F-ANA at 4 5 7 8 10 12 13 15: 46.9 a.u.
2'F-ANA at 2 4 6 8 9 10 11 13 14: 65.8 a.u.
2'F-ANA at 4 6 7 10 11 12 13: 82.8 a.u.
2'F-ANA at 3 6 8 11 12 14 15: 583 a.u.
2'F-ANA at 3 5 6 9 11 14: 52.9 a.u.
2'F-ANA at 1 2 4 7 9 10 11 12 13 14: 47.6 a.u.
2'F-ANA at 2 3 7 9 12 13: 957 a.u.

Repeated from above (block 3):
I11N: 0.496
R8A: 0.42
P1F: 0.658
K6E: -0.145
K6Q: 0.0667
P1Q: 0.107
L4F: 0.458
K2C: 0.357
F9E: 0.00196
P1H: 0.314
G13C: 0.351
